Assay results gathered from unrelated publications.
± marks the error that the study gave.

For `NC1=NC2(CCN(C(=O)c3ccc4ccccc4c3)CC2)N(c2cccc(Cl)c2)C(N)=N1`, “minimum cytotoxic concentration” read ≥ 4 µM (MDCK; microscopy, altered cell morphology).
`C=C(C[C@H](N)C(=O)O)C(=O)NCc1ccc([N+](=O)[O-])cc1`: “concentration increasing cytotoxicity” 320 µM (MDA-MB-231; 72 h; baseline: vehicle).
`CC1(C)[C@H](C(=O)O[C@H](C#N)c2cccc(Oc3ccccc3)c2)[C@@H]1/C=C(\Cl)C(F)(F)F` (racemic) — result for “apoptotic cells ratio”: 3 (Caco-2; Hoechst and PI staining; 25 µM, 48 h; baseline: untreated).
`COc1cccc2c1C(=O)c1c(O)c3c(c(O)c1C2=O)C[C@@](O)(C(=O)CO)C[C@@H]3O[C@H]1C[C@H](N)[C@H](O)[C@H](C)O1`: “AUC of intracellular concentration” 463 ng·h/mL (HCT-8/ADR; concentration not given, up to 4 h, 2 h loading then drug-free medium).
`CC(=O)c1cccc(NC(=O)c2cc3c(=O)n4ccccc4nc3n2C)c1` has an IC50 of 121 ± 9.21 µM (Vero E6; MTT).
With `CN(CC(=O)NCCN1CCOCC1)S(=O)(=O)NCc1cccc(Oc2ccccc2)c1` the TD50 was 320 ± 24 µM (HG23 norovirus replicon cells; 48 h).
For `CCOP(=O)([O-])OCC.CCn1cc[n+](C)c1`, “point of departure” read < 30 µM (human iPSC-derived cardiomyocytes; mitochondrial membrane potential; 30 min).
Under cytotoxicity, `GRKKRRQRRRPQSWQDLKDH` is recorded as “not toxic” (A-375; MTT; peptide; up to 100 µM, 24 h).
`Cl.NC1=NC2(CCCN(Cc3ccccc3)C2)N(c2ccccc2)C(N)=N1` (stereo not shown) — result for “minimum cytotoxic concentration”: > 100 µM (MDCK; microscopy, altered cell morphology).
The IC50 of `O=C(Cc1ccccc1Nc1c(Cl)cccc1Cl)Oc1ccc(-c2cc(=S)ss2)cc1` is reported as 38 µM (HepG2 and LS180; EROD activity, inhibitor; 24 h, averaged over cell lines, with: TCDD 250 pmol).
For `CCN(CC)N=O`, “lowest effective concentration” read 5000 µM (HepaRG spheroids; micronucleus formation, flow cytometry; 24 h; baseline: vehicle control).
Under “minimum cytotoxic concentration”, `Nc1nc2c(ncn2COCCO)c(=O)[nH]1` is recorded as > 440 µM (HEL embryonic lung fibroblasts; cell morphology, microscopy).
Under “point of departure”, `[CH3][Hg][Cl]` is recorded as < 30 µM (human iPSC-derived cardiomyocytes; mitochondrial membrane potential; 30 min).
For `O=C(c1cc(Cc2n[nH]c(=O)c3ccccc23)ccc1F)N1CCN(C(=O)C2CC2)CC1`, “concentration increasing cytotoxicity” read 320 µM (MDA-MB-231; 24 h; baseline: vehicle).
`Cc1nn(Cc2ccc(O)c(C=O)c2)c(=O)[nH]c1=O`: “minimum cytotoxic concentration” ≥ 100 µM (HEL fibroblasts; cell morphology, microscopy).
`C[C@@H]1CCO[C@H]2Cn3cc(C(=O)NCc4ccc(F)cc4F)c(=O)c(O)c3C(=O)N12` gave an intracellular accumulation of 267 ± 41 pmol/mg protein (hCMEC/D3; 10 µM, 1 h, 37 °C, 3-drug cART combination).
For `O=NN1CCN(C2CCCC2)CC1`, “lowest effective concentration” read 312 µM (HepaRG 3D spheroids; DNA damage, item: % tail DNA; 24 h; baseline: vehicle).
For `CCCN(CCC)S(=O)(=O)c1ccc(C(=O)O)cc1`, “survival rate increase” read 7.8% (rabbit renal proximal tubule cells; 200 µM, 24 h, with DHP-I siRNA or cilastatin 200 µM, with: imipenem).
`C[C@H](Cn1cnc2c(N)ncnc21)OCP(=O)(O)O` has an intracellular concentration of 0.64 ± 0.15 ng/mL (hCMEC/D3; 10 µM, 1 h, in antiretroviral combination).

Excerpt of the above:
For `NC1=NC2(CCN(C(=O)c3ccc4ccccc4c3)CC2)N(c2cccc(Cl)c2)C(N)=N1`, “minimum cytotoxic concentration” read ≥ 4 µM (MDCK; microscopy, altered cell morphology).
